Measurements from different studies.
Each numbered part is a random draw from the data of one study; scales do not carry over between parts.

Series 1 — technique: protein-binding microarray; form: double-stranded DNA, one strand shown; matrix: in vitro; tested at: 940 nM top; setting: 60-bp whole probe; together with: salmon DNA 0.4 mg/ml; reference: random background probes; reading: higher = stronger binding; all sequences stand within: GCCTAGCAC … GTCTTGATTCGCTTGACGCTGCTG
Target: Interferon regulatory factor 5, full length, phosphomimetic (IRF5, Homo sapiens, UniProt Q13568-2, residues 1-514, S451D/S453D/S456D/S462D)
Sequence | fitted relative affinity
TTAGGTTTCGGTTTCCGTTAGTGCTAG | 13.2 z-score
TCAACTGTCTGTTTCCTACTGTGCTAG | 0.629 z-score
TTAGGTATCGTTATCCTTTAGTGCTAG | 6.76 z-score
TTAGGACTGGGCACTGGGTTAGTGCTA | -0.314 z-score
GACGGTTTCGGGACTGGGAACGTGCTA | 6.79 z-score
ATAGATATCAGTATCGATTAGTGCTAG | 5.02 z-score
TTATTTTTTTTATTTATAAAGTGCTAG | 1.29 z-score
TTAGATTTCAGGCTCGATTAGTGCTAG | 0.462 z-score
GTCGATTTCGGGTATCGAGACGTGCTA | 2.83 z-score
GACGGTCTGGGGACTGGGGACGTGCTA | -0.144 z-score
TTAGATATCGGGACTGAATTAGTGCTA | -0.0469 z-score
TTAGATTTCAGCTCCGATTAGTGCTAG | -0.00235 z-score
TTAGGTTTCAGGTTTCGGTTAGTGCTA | 8.28 z-score
TTAGGTTTCGGGGTTCGGTTAGTGCTA | 8.93 z-score
TAAGGACTGGGTATCGGTTAGTGCTAG | 3.76 z-score
TTTACTTTCTGAATGCTCCCGTGCTAG | 2.68 z-score
GTTTGGGTCTTGTCTGGAGTCGTGCTA | -0.105 z-score
TCAGGTCTCCTACTGCTTTAGTGCTAG | 0.0724 z-score
CCCTGCGTGGTCTCGAGCTGGTGCTAG | -0.535 z-score

Series 2 — technique: RNA Bind-n-Seq; form: RNA; matrix: in vitro; tested at: 365 nM; reference: no-protein control; reading: higher = stronger binding
Target: RNA binding protein fox-1 homolog 2, RRM domain, GST-SBP tag (RBFOX2, Homo sapiens, UniProt O43251-10, residues 100-194)
Setting: natural RNA segment, single round, ends assumed
Construct (chain): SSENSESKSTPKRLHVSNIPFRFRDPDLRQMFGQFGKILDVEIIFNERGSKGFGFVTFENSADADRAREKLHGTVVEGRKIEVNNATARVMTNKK
Sequence | RBNS enrichment (R)
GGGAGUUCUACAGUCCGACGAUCAGAGUUGUCUGCAACAUUUUUGUUUUCUUUUUUAAUGUCCAAAAGUGGGGGAAAGUGCUAUUUCCUAUUUUCACCAAAAUUGGGGAAGGAGUGCCACUUUCCAGCUCCACUGGAAUUCUCGGGUGCCAA | 0.952
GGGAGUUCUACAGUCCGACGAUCGCUCUGCCUCUGCAGUUGGCAGGUGUCCCAGAUUUGCUGUUGGACAGGGACCUUCUGCACUCCAUCCAUAAUAGCCUUUGGUACCUUCCAGAGGAGUCCUUCCCGAGAGCUGGAAUUCUCGGGUGCCAA | 0.488
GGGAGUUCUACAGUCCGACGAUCCUGGCUCUUCGUCCCCAGUCUCCCAGUGGGGGGGCCCUGGGGAGAUUCCAGGGGUGUGAUUGAAUAUUUAUCUCUUGCUCUUGUAUGUUUGUUGGGGAGAAGAAGCACUUUGGAAUUCUCGGGUGCCAA | 26.2
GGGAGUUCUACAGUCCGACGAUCUUAGUGUUUUAAAUUGGAACAUAUCUUGCCUCAUGAAGCUUUAAAUUAUAAUUUUCAGUUUCUCCCCAUGAAGCGCUCUCGUCUGACAUUUGUUUGGAAUCGUGCCACUGUGGAAUUCUCGGGUGCCAA | 0.376
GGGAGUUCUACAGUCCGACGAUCUGCAUCUCUCUUCAUUUAAAAAGGAUACACAAUUCUUUCCUCAUUGCAUAUUACACCAAACGUUUGAGGGAAAAAUCCUCAUUCGUAAAGGAUUUUGGAUGUAUAAUCUAUGGAAUUCUCGGGUGCCAA | 0.715
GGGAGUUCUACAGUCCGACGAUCAAGCGAGGUCAGACAUCCACCAGAAUCAACUCAGCCUCAGGCAUCCAAAGCCACAUCACAGUCGGUGGUGAUGCAUCUGGGGGCUUACUCUGAGGAAACCUAGGAAAUCUUGGAAUUCUCGGGUGCCAA | 0.221
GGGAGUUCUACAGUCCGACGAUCUUUUGUUACUUGCACUUGUUAUUCGAACCACUGAGAGCGAGAUGGGAAGCAUAGAUAUCUAUAUUUUUAUUUCUACUAUGAGGGCCUUGUAAUAAAUUUCUAAAGCCUCUUGGAAUUCUCGGGUGCCAA | 0.495
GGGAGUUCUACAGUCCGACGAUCUCAGCAAGCCAUCAAGCCUCACAUCUCUACCAUCAGAGAUAGAGCUUGGCCAUUUAUCUAAGGAAGAUGAGCCAAAAUUAUGACAUCUAAAAUAAUCGUCAGUCUUAAGAUGGAAUUCUCGGGUGCCAA | 0.28

Series 3 — technique: universal PBM; form: double-stranded DNA, one strand shown; matrix: in vitro; tested at: 600 nM; reading: higher = stronger binding
Target: Sal-like protein 4, full length isoform A (SALL4, Homo sapiens, UniProt Q9UJQ4, residues 1-1053)
Chain of UniProt Q9UJQ4 (whole entry, looked up): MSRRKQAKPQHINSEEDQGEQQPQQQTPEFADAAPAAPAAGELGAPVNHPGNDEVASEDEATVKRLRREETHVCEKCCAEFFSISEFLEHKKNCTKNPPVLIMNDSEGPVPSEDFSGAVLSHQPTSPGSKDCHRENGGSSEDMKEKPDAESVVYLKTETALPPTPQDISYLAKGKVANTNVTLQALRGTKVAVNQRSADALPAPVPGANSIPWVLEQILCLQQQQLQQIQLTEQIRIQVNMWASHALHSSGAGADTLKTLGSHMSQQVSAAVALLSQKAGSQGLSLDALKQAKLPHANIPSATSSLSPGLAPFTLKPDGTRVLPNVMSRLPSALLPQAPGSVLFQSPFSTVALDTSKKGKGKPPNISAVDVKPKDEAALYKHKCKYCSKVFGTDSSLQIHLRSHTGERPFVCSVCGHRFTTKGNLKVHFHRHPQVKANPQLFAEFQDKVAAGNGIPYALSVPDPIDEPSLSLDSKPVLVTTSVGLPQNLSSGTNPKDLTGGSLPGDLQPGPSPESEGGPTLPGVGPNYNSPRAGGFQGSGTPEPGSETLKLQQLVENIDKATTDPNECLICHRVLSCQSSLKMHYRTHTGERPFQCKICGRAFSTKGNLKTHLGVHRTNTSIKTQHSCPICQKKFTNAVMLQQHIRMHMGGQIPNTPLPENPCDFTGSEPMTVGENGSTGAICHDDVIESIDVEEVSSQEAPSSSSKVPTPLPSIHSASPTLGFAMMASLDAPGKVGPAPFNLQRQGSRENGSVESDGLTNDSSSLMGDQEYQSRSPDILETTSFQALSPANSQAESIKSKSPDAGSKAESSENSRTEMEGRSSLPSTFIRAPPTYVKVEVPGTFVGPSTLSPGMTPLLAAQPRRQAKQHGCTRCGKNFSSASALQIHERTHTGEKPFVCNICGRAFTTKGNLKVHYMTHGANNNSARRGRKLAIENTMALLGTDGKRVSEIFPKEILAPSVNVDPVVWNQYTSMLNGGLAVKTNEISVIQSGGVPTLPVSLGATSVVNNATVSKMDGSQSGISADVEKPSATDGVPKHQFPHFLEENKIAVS
Setting: 8-mer, flanks averaged, mean of replicates
Sequence | E-score
CTTGGTTA | 0.0654
ATACGGCC | -0.108
GCGCTCCC | -0.276
AAGGTGGG | -0.266
CAATCCGA | 0.0844
GGGGCGCA | -0.29
CAAATAAC | 0.31
AATGTTCA | 0.192
ATACCGTC | 0.0305
ACATCGAG | -0.0624
GACCACTA | -0.0241
CCGAGTCG | -0.335
CCGCTACC | -0.215
AATCCGAA | 0.0959
GCGTCATA | 0.192
TCTGCCAA | 0.0193
ACATTCTG | 0.0949
GCTGCGAA | -0.112
ACACTAGA | 0.158
AGACAGAA | 0.0313
CTATACCC | 0.0414
CTCGGACA | -0.0761

Series 4 — technique: EMSA with sequencing; form: double-stranded DNA, one strand shown; matrix: in vitro; tested at: 10 and 20 nM; reference: negative control set to 0; reading: higher = stronger binding
Target: Hepatocyte nuclear factor 3-alpha (Foxa1, Mus musculus, UniProt P35582, residues 1-468, full length assumed)
Setting: whole designed probe, mean of two concentrations, ends assumed
Target sequence (chain): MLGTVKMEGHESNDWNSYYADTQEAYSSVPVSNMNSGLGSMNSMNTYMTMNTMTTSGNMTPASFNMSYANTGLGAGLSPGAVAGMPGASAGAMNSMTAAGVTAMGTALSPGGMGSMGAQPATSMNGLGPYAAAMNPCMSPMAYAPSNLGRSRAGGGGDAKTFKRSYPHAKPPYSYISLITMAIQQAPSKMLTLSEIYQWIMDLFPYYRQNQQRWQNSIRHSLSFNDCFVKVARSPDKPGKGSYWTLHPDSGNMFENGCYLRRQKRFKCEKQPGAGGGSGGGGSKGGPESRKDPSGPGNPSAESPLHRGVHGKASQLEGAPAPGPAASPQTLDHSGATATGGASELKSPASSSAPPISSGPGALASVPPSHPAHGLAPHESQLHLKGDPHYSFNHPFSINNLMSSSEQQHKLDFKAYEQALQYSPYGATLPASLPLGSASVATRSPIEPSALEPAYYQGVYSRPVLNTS
Sequence | normalised bound fraction [ratio]
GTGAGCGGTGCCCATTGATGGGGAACGTGTGTGCGCGCGCGTGTGTGTGTGTTTTCTTAAGCCGGGCTATTCAAACCCTGCTGCAATTCTCCGGTAAAGGCAATGATTCATGGCATAATGCAAATAAACGGATTGCAAACGGCGCGGTTCGCGCACTTTGCAGCCGGCCCGGTGGAGCAGCCAGTGCCGGATTTCTCCCTTTTTTTGCAGATCTGCAGATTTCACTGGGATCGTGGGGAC | 0.394
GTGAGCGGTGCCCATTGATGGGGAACTAGCCCCTAAAATACTCCTCCTTTACGCCAAAAGATTCTCTTTTCAGCTGTGTTTAAAGTGAAACAATTTTTTATTACGAAAAATTTTGAAAATGTAAACATGCAAAAAAGATAAGCAAGACTGCTATAATCTAGAGCAAACCAATCTCAATATTTTGATGCATAGCCTTCTAAAATTTTTCTCTTTCTATATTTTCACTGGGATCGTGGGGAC | 0.238
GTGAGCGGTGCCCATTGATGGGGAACCAAGTTTGTGGTCCAGGAGCAACAGGTTATGCCATACAGCCTAGGTGTGTAGTAGGCTACACACCGTCTATGTTTGTGTTGTACACTCTACAATGTTTGCACAATGATGAAATCTTCTCACCATGACTCATGAACATACCCCTGTTGTTAAGCGATACATGACTGTACTTTTTTTAAAAAGTCCAAGGATATATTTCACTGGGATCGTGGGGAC | 0.413
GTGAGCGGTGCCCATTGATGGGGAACTCCCTTTTATAGGAATTATGCAGAAATTATTCCATTTCTTTGAACATTTGGGAGCATATGCAGAGTAAAGTATAAATGCTTGCAGAATGCCTTTATTTGCATATTGCAGTTTTTCAGAAATTATCTCCCTTCAGCACACCAAAGGCTTTGATTTCTACTAATTCTAATAATATTCAGGGTGAAGGAGAAACTGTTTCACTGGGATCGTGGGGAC | 0.349
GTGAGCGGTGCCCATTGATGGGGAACATCTTCCCCCTCTTCCTTGCCCCACCAGCTCACCTTCCCGGGTTATTTGCACAAAGGAAAATAAATAAAGCCGGCATTCGTTAACGCAGTTCACGCGCATACTGCTGTTTGCTCTGCATCTAACATGGTCCTTACGCGACGCCAGGCTCCGGGAGAGCAAAGCACCGTGTCAGGCGCATGATCCGGGCTCGCCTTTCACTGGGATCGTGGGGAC | 0.389

Excerpt of the above (series 3):
Sequence | E-score
AGACAGAA | 0.0313
TCTGCCAA | 0.0193
ATACGGCC | -0.108
ACATCGAG | -0.0624
CTCGGACA | -0.0761
